# Measurements collected from several papers.
# Numbered parts are unrelated; each lists some results of a single study. Substitutions count along the parent as printed.

# Study 1
# Target: ABI1, truncated, D143A, DHFR fusion (Arabidopsis thaliana)
# Method: DHFR PCA, deep sequencing
# Medium: yeast
# Setting: methotrexate growth selection, single substitutions
# Added: (+)-ABA 1.4 µM
# Reference: wild-type fitted maximum
# Direction: higher = stronger binding
# Parent: PYL1, truncated, DHFR fusion (Arabidopsis thaliana); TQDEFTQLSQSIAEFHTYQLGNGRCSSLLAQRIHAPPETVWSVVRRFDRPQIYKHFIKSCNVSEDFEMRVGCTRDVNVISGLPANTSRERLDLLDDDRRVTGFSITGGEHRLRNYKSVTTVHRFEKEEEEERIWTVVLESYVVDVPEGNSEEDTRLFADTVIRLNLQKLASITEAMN; partner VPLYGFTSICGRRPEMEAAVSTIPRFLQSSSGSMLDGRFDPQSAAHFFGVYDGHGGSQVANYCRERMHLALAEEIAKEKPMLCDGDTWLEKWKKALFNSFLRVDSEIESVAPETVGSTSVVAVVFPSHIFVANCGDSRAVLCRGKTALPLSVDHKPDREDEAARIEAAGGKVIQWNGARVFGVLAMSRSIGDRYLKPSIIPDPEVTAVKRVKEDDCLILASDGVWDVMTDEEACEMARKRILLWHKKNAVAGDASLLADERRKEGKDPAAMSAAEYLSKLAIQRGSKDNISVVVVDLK
Change,relative binding score [%]
E139D,-6.45
K58D,6.58
T154R,-7.3
E109A,16.9
A13D,40.4
P50T,-4.69
R113Y,22
I133L,55.2
G81T,16.5
T17S,32
V142N,-12.2
P146D,-7.49
Y115D,0.637
D92M,-1.01
V145I,43.3
F56A,-0.0205
M176Q,40.7
S117M,0.319

# Study 2
# Target: CCND2, cyclin fold, Cln2 fusion (human)
# Method: yeast growth competition, sequencing
# Medium: yeast
# Setting: weak parent motif
# Reference: not given
# Direction: higher = stronger binding
# Parent: NPAT docking peptide (human); PCHRRVLCFDSTT; partner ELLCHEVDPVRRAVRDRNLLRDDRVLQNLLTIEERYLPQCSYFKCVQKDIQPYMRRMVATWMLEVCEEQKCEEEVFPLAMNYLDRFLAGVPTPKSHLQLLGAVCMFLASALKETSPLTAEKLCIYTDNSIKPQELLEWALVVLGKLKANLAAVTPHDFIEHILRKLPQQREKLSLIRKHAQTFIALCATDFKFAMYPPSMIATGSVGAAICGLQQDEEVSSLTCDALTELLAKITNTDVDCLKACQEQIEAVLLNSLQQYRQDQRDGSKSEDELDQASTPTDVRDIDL
Change,normalised enrichment score
S11A,-0.262
R5K,0.242
V6A,-0.0766
F9L,-0.224
R4A,0.14
T12A,0.163
D10A,0.152
R5A,0.0426
F9A,0.0276
R5A L7A,-0.0199

# Study 3
# Target: Ras GTPase-activating protein-binding protein 1, full length (G3BP1, Homo sapiens, UniProt Q13283)
# UniProt Q13283, sequence (whole entry, looked up): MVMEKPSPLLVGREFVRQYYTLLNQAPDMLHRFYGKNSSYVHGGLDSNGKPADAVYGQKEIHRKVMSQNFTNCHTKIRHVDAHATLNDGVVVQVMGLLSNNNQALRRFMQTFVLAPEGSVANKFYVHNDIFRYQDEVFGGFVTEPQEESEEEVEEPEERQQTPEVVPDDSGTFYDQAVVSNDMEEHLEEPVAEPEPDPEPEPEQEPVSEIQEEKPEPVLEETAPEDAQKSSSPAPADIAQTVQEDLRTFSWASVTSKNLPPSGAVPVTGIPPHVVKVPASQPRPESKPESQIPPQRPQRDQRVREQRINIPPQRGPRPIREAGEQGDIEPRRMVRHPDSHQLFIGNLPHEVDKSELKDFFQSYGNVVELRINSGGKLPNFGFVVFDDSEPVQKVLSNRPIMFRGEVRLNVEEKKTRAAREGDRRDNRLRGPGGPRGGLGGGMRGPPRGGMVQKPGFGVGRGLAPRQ
# Method: RNA Bind-n-Seq
# Molecule type: RNA
# Medium: in vitro
# Concentration: 200 nM
# Setting: whole 134-nt RNA, ends assumed
# Added: 150 mM LiCl
# Reference: input library
# Direction: higher = stronger binding
# Library: 7-deaza-guanosine replaces G
# Shared flanks, not repeated: GGGAGUUCUACAGUCCGACGAUC … UGGAAUUCUCGGGUGUCAAGG
Oligonucleotide,log2 enrichment
CAAGUCCUGUGCUACACAUCGUAUGUACCGAAUCGGAAAAAAAGGUGGUUUUUGGAAAGUAUUAUGUUACGCCGUUCGGAUCUGCACUUC,-1.13
CACAGACAAGACGCACCCACACAGACACAGAGGGAAGGGGUUGGGAUGGGGACAGGGUGCACAGCAGGGCGGGGUAGGACCCCAGCCCCU,0.489
CAAGUCCUGUGCUACACAUCGUAUGUACCGAAUCGGUGGAAAAAAAGGAAAAAGGAAAGUAUUAUGUUACGCCGUUCGGAUCUGCACUUC,-1.08
AAGUCCUGUGCUACACAUCGUAUGUACCGAAUCGGGAAAGGGGAAAGGGAAAGGGGAAAGUAUUAUGUUACGCCGUUCGGAUCUGCACUU,0.577
UCCUCAAGUCCUGUGCUACACAUCGUAUGUACCGAAUCGGGUGGUGGGUGGGAAAGUAUUAUGUUACGCCGUUCGGAUCUGCACUUCCAG,0.719
CACAGACAACACGCACCCACACAGACACAGAGGGAAGGGGUAGGGAUGGGGACAGGGUGCACAGCAGGGCGGGGUAGGACCCCAGCCCCU,-0.918
CUCAAGUCCUGUGCUACACAUCGUAUGUACCGAAUCGGGCCGGCCGGGGCCGGAAAGUAUUAUGUUACGCCGUUCGGAUCUGCACUUCCA,1.21
GUCCUGUGCUACACAUCGUAUGUACCGAAUCGGAAAAAGGAAAAAAAGGUUUUUUUGGAAAGUAUUAUGUUACGCCGUUCGGAUCUGCAC,-1.99

# Study 4
# Target: Interferon regulatory factor 5, full length, phosphomimetic (IRF5, Homo sapiens, UniProt Q13568-2, residues 1-514, K96S/S451D/S453D/S456D/S462D)
# Method: protein-binding microarray
# Molecule type: double-stranded DNA, one strand shown
# Medium: in vitro
# Concentration: 250 nM
# Setting: 60-bp whole probe
# Added: salmon DNA 0.4 mg/ml
# Reference: random background probes
# Direction: higher = stronger binding
# Shared flanks, not repeated: GCCTAGCAC … GTCTTGATTCGCTTGACGCTGCTG
Oligonucleotide,log fluorescence
CCAGCTCTTTCGTTACTTCCTGTGCTA,5.01 z-score
TTAGGTTTCAGTTTCGATTAGTGCTAG,10.6 z-score
GACGGACTGGACATTCGGGACGTGCTA,-0.436 z-score
GACGGTCACGGTCTCGGGACGTGCTAG,-0.359 z-score
TTAGGACTGCTTTTCCTTTTGTGCTAG,0.255 z-score
GACGAACTGAGCCTGGAGACGTGCTAG,-0.648 z-score
TTAGAACTCGGGTATCGATTAGTGCTA,3.35 z-score
TTAGGTCTCCTTATCTTTTAGTGCTAG,0.252 z-score
GACGCTATCGGGTTTCGAGACGTGCTA,4.73 z-score
TCAGATTTCTCAAACAGACTGTGCTAG,0.146 z-score
TCATATATGTATATATGACTGTGCTAG,0.539 z-score
GACGATTTCAGTATGGAGACGTGCTAG,1.37 z-score
GACGGTTCCCTCTTCCTGACGTGCTAG,0.203 z-score
GACGAACTGGGCTTTCGAGACGTGCTA,1.32 z-score
GCCGATATCAGTTTCGAGACGTGCTAG,7.05 z-score
GGCGATCTCAGTCTCGAGACGTGCTAG,-0.385 z-score
TTAGGACTGGCTCTCGGTTAGTGCTAG,-0.114 z-score
GGCTCTCAGTGGGCTGCTGGGTGCTAG,-0.61 z-score
TTAAGTTTCCTTATCCTTTAGTGCTAG,1.87 z-score

# A few entries again (study 2):
Change,normalised enrichment score
R5A L7A,-0.0199
R5A,0.0426
S11A,-0.262
T12A,0.163
R4A,0.14
R5K,0.242
F9A,0.0276
D10A,0.152
